Published values collected from several papers.
Compare with care: the assays were run in different laboratories. Numbers after ± are the reported error. ≈ marks a conversion by molar mass, not a printed value.

COC(=O)C1=CO[C@@H](OC(C)=O)[C@@H]2C(Cn3cc(COCc4ccccc4)nn3)=CC[C@H]12 — viability (SK-N-SH; neuroprotection, MTT; 0.6 µM, 24 h, with: 250 µM H2O2): 60.6 ± 0.4%
COCO[C@H]1[C@H](O)[C@@H](N)[C@@H](O[C@H]2[C@H](O[C@@H]3O[C@H](CO)[C@@H](O[C@H]4O[C@@H](CN)[C@@H](O)[C@H](O)[C@H]4N)[C@H]3O)[C@@H](O)[C@H](N)C[C@@H]2N)O[C@@H]1CO — IC50 (Mycobacterium smegmatis ribosome A1408G; translation, cell-free luciferase synthesis): 4.48 ± 0.32 mg/L
CSC(=NNC(=O)c1ccc([N+](=O)[O-])cc1)SC — MIC (Mycobacterium; Kansasii): 25 µg/mL (≈ 87.6 µM)
CCO[C@H]1[C@H](O)[C@@H](N)[C@@H](O[C@H]2[C@H](O[C@@H]3O[C@H](CO)[C@@H](O[C@H]4O[C@@H](CN)[C@@H](O)[C@H](O)[C@H]4N)[C@H]3O)[C@@H](O)[C@H](N)C[C@@H]2N)O[C@@H]1CO — IC50 (Mycobacterium smegmatis ribosome A1408G; translation, cell-free luciferase synthesis): 8.83 ± 3.1 mg/L
O=C1CC(=O)N(c2ccccc2)c2cc(Cl)ccc2N1 — ED50 antihyperalgesia (mechanical hyperalgesia, electronic von Frey; GABAA α1 H→R mutant mouse, CCI; oral): 3.1 ± 0.9 mg/kg
CC1OCC2OC(OC3C(N)CC(N)C(O)C3OC3OC(CO)C(OC4OC(CN)C(O)C(O)C4N)C3O)C(N)C(O)C2O1 (stereo not shown) — IC50 (Mycobacterium smegmatis ribosome A1408G; translation, cell-free luciferase synthesis): 5.42 ± 1.23 mg/L
COC(=O)C1=CO[C@@H](O)[C@@H]2C(Cn3cc(-c4ccc(OC)cc4)nn3)=CC[C@H]12 — viability (SK-N-SH; neuroprotection, MTT; 0.15 µM, 24 h, with: 250 µM H2O2): 63 ± 2.6%
COc1ccc(F)cc1S(=O)(=O)Nc1cnc2c(c1)C(=O)NCCO2 — duration of ALP inhibition (alkaline phosphatase; mouse, plasma; oral, dose not given): ≤ 6 h
COC(=O)C1=CO[C@@H](OC(C)=O)[C@@H]2C(Cn3cc(CCCCN4C(=O)c5ccccc5C4=O)nn3)=CC[C@H]12 — viability (SK-N-SH; neuroprotection, MTT; 0.15 µM, 24 h, with: 250 µM H2O2): 51.7 ± 0.7%
NC(=O)OC[C@H](N)Cc1ccccc1 — AUC of extracellular dopamine (microdialysis; rat, nucleus accumbens; oral, 100 mg/kg, 1.5 h; reference: basal): 123%
NC1=NN=Cc2ccccc2[O][V](=[O])[O]1.c1cnc2c(c1)ccc1cccnc12 — IC50 (Mycobacterium tuberculosis PtpB; enzyme activity, inhibitor): 5.12 ± 0.78 µM
NC[C@@H]1O[C@H](O[C@H]2[C@@H](O)[C@H](O[C@@H]3[C@@H](O)[C@H](N)C[C@H](N)[C@H]3O[C@H]3O[C@@H]4COCO[C@H]4[C@H](O)[C@H]3N)O[C@@H]2CO)[C@H](N)[C@@H](O)[C@@H]1O — IC50 (Mycobacterium smegmatis ribosome A1408G; translation, cell-free luciferase synthesis): 32.6 ± 9.13 mg/L
COC(=O)C1=CO[C@@H](OC(C)=O)[C@@H]2C(Cn3cc(CCO[Si](c4ccccc4)(c4ccccc4)C(C)(C)C)nn3)=CC[C@H]12 — viability (SK-N-SH; neuroprotection, MTT; 0.075 µM, 24 h, with: 250 µM H2O2): 49.6 ± 0.6%
CC[C@H](C)[C@H](NC(=O)[C@H](Cc1ccccc1)NC(=O)[C@H](CCC(=O)O)NC(=O)[C@H](CCCCNC(=O)COCC(=O)NCCCOCCOCCOCCCNC(=O)CNC(=O)[C@@H]1CCCN1C(=O)CNC(=O)[C@@H]1CCCN1C(=O)CNC(=O)[C@@H]1CCCN1C(=O)[C@H](CCCCNC(=O)CN(CCN(CCN(CC(=O)O)CC(=O)O)CC(=O)O)CC(=O)O)NC(=O)COCC(=O)NCCCOCCOCCOCCCNC(=O)COCC(=O)NCCOc1ccc(Cl)cc1C(=O)NCCc1ccc(S(=O)(=O)NC(=O)NC2CCCCC2)cc1)NC(=O)[C@H](C)NC(=O)[C@H](C)NC(=O)[C@H](CCC(N)=O)NC(=O)CNC(=O)[C@H](CCC(=O)O)NC(=O)[C@H](CC(C)C)NC(=O)[C@H](Cc1ccc(O)cc1)NC(=O)[C@H](CO)NC(=O)[C@H](CO)NC(=O)[C@@H](NC(=O)[C@H](CC(=O)O)NC(=O)[C@H](CO)NC(=O)[C@@H](NC(=O)[C@H](Cc1ccccc1)NC(=O)[C@@H](NC(=O)CNC(=O)[C@H](CCC(=O)O)NC(=O)[C@H](C)NC(=O)[C@@H](N)Cc1c[nH]cn1)[C@@H](C)O)[C@@H](C)O)C(C)C)C(=O)N[C@@H](C)C(=O)N[C@@H](Cc1c[nH]c2ccccc12)C(=O)N[C@@H](CC(C)C)C(=O)N[C@H](C(=O)N[C@@H](CCCNC(=N)N)C(=O)NCC(=O)N[C@@H](CCCNC(=N)N)C(=O)NCC(N)=O)C(C)C — Kd (GLP-1R and SUR1; Eu-ligand saturation binding; βTC3; 1 h, 37 °C): 50.5 nM
CCCCCCCCOCc1cn(CC2=CC[C@@H]3C(C(=O)OC)=CO[C@@H](OC(C)=O)[C@H]23)nn1 — viability (SK-N-SH; neuroprotection, MTT; 0.15 µM, 24 h, with: 250 µM H2O2): 62.5 ± 0.4%
CCCCCCCCC(=O)NCc1ccc(O)c(OC)c1 — IC50 (mAb 4-AT4; antibody binding, indirect competitive ELISA; with: coating antigen hapten 2-OVA): 0.136 mg/L

Excerpt of the above:
NC1=NN=Cc2ccccc2[O][V](=[O])[O]1.c1cnc2c(c1)ccc1cccnc12 — IC50 (Mycobacterium tuberculosis PtpB; enzyme activity, inhibitor): 5.12 ± 0.78 µM
NC[C@@H]1O[C@H](O[C@H]2[C@@H](O)[C@H](O[C@@H]3[C@@H](O)[C@H](N)C[C@H](N)[C@H]3O[C@H]3O[C@@H]4COCO[C@H]4[C@H](O)[C@H]3N)O[C@@H]2CO)[C@H](N)[C@@H](O)[C@@H]1O — IC50 (Mycobacterium smegmatis ribosome A1408G; translation, cell-free luciferase synthesis): 32.6 ± 9.13 mg/L
